# Results pooled from the literature.
# Compare with care: the assays were run in different laboratories. Values joined by “and” are separate records of one study, mostly repeats; a detail may differ.
# Cell line: M14
Structure (SMILES),assay,setting,scale,measurement,result
CSc1nc(-c2ccc(Cl)cc2)c2c(NC(=O)c3ccccc3)nnc-2[nH]1,SRB,"10 µM, NCI60 single-dose screen",reference: untreated,cell growth,96.8%
C#C[C@@]1(O)[C@@H](CO)O[C@@H](n2cc(F)c3c(N)ncnc32)[C@@H]1O,SRB,NCI-60 screen,,TGI,2.39 µM
O=C(Nc1nnc2n3c(=S)[nH][nH]c3nc(-c3ccc(Cl)cc3)c1-2)c1ccccc1,SRB,"10 µM, NCI60 single-dose screen",reference: untreated,cell growth,107%
CCCN1CCN(c2ccc3[nH]c(-c4ccc5[nH]c(-c6ccc(C(F)(F)F)cc6)nc5c4)nc3c2)CC1,SRB,"10 µM, 48 h",,growth percent,-59%
CCOC(=O)CSc1nc(-c2ccc(Cl)cc2)c2c(NC(=O)c3ccccc3)nnc-2[nH]1,SRB,"10 µM, NCI60 single-dose screen",reference: untreated,cell growth,98.3%
C#C[C@@]1(O)[C@@H](CO)O[C@@H](n2cc(I)c3c(N)ncnc32)[C@@H]1O,SRB,NCI-60 screen,,TGI,8.47 µM and 10.7 µM
Cn1cncc1C1=CN(c2ncnc3[nH]cnc23)CCS1,,melanoma cell line,,TGI,49 µM
CCCCN1CCN(c2ccc3[nH]c(-c4ccc5[nH]c(-c6ccc(OCC)c(OCC)c6)nc5c4)nc3c2)CC1,SRB,"10 µM, 48 h",,growth percent,-28%
CCN(CC)c1ccc(C=NNC(=O)CSc2nc3ccccc3c(=O)n2Cc2ccc(S(N)(=O)=O)cc2)c(O)c1,NCI five-dose screen,,,TGI,10.9 µM
S=C([S][Au-][P+](CCCCCC[P+]([Au-][S]C(=S)n1cccn1)(c1ccccc1)c1ccccc1)(c1ccccc1)c1ccccc1)n1cccn1,"cell growth, NCI-60 screen",melanoma,,log TGI,> -4 log10 M
COc1ccc(OC)c(-c2nc3ccc(-c4nc5ccc(N6CCN(C)CC6)cc5[nH]4)cc3[nH]2)c1,SRB,"10 µM, 48 h",,growth percent,102%
O=C(Nc1nnc2n3c(Cc4ccccc4)n[nH]c3nc(-c3ccc(Cl)cc3)c1-2)c1ccccc1,SRB,"10 µM, NCI60 single-dose screen",reference: untreated,cell growth,99.6%
CCCCN1CCN(c2ccc3[nH]c(-c4ccc5[nH]c(-c6ccc(OCC)cc6)nc5c4)nc3c2)CC1,SRB,"10 µM, 48 h",,growth percent,32.7%
Cc1cc(-c2ccccc2)n(-c2nc(-c3ccc(Cl)cc3)c3c(NC(=O)c4ccccc4)nnc-3[nH]2)n1,SRB,"10 µM, NCI60 single-dose screen",reference: untreated,cell growth,103%
CCCCN1CCN(c2ccc3nc(-c4ccc5nc(-c6cc(OC)ccc6OC)[nH]c5c4)[nH]c3c2)CC1,SRB,"10 µM, 48 h",,growth percent,112%
C#C[C@@]1(O)[C@@H](CO)O[C@@H](n2cc(Cl)c3c(N)ncnc32)[C@@H]1O,SRB,NCI-60 screen,,TGI,0.659 µM and 0.52 µM

# Some of these lines once more:
Structure (SMILES),assay,setting,scale,measurement,result
C#C[C@@]1(O)[C@@H](CO)O[C@@H](n2cc(F)c3c(N)ncnc32)[C@@H]1O,SRB,NCI-60 screen,,TGI,2.39 µM
